Published values collected from several papers.
Compare with care: the assays were run in different laboratories. Numbers after ± are the reported error.

`COc1cc(CNC(=O)C[C@H](C)CCC=C(C)C)ccc1OCc1cn(-c2cccc(Cl)c2)nn1` has a growth percent of 52.5% (Hs-578T breast cancer cells; SRB; 10 µM, 48 h).
The EC50 of `Ic1cccc2cnccc12` is reported as 1900 nM (axotomized mouse DRG neurons; NfL release, ELISA, item: neurofilament light chain; culture supernatant).
`O=C(Nc1cc(Cl)ccc1O)c1nn2c(C(F)(F)F)cc(-c3cc(Br)cs3)nc2c1Br` — result for TNF-alpha level: “increased” (healthy donor PBMC; ELISA; 2.5 µM, 48 h).
Under “HIF-1β protein level”, `CCN(CC)CC(=O)Nc1cccc(-n2cc(-c3ccc4ccc(-c5cn(-c6cccc(NC(=O)CN(CC)CC)c6)nn5)cc4c3)nn2)c1` is recorded as “no effect” (RCC4 and 786-0; Western blot; concentration not given).
Under cell migration, `CCC[C@H]1CC[C@H](c2ccc(NC(=S)NC[C@@H]3[C@@H](O)[C@@H](O)[C@H]4[C@H](O)CCCN43)cc2)CC1` is recorded as “decreased” (Huh-7; Transwell; concentration not given).
`C[N+]1(CC(=O)OC2CCCCCCCCCCC2)CCCCC1` gave an ED70 of 11300 nM (DU-145; cell viability, CellTiter Blue; 96 h).
The intracellular ROS of `O=C(/C=C(O)/C=C/c1cccs1)/C=C/c1cccs1` is reported as 134 ± 12.4% (Caco-2; DCFH-DA, SRB-normalized; 1 µM; relative to: untreated cells).
`COc1cc2c(OC3OCC(OC)C(OC)C3OC(=O)c3ccc(Br)cc3)c3c(c(-c4ccc5c(c4)OCO5)c2cc1OC)C(=O)OC3` (centres unmarked) — result for migrating cells: “decreased” (CAL-27; transwell; 0.1 and 1 µM, 36 h; relative to: DMSO).
The growth of `COc1cc(CNC(=O)C[C@H](C)CCC=C(C)C)ccc1OCc1cn(-c2ccccc2[N+](=O)[O-])nn1` is reported as 62% (LOX IMVI; SRB; 10 µM, 48 h).
`CCOC(=O)c1nc2cc(Cl)c(Cl)cc2nc1N1CCN(C(=O)Nc2ccc(N3CCNCC3)cc2)CC1`: “NRF2 target gene mRNA level” “increased” (RAW264.7; qRT-PCR; concentration not given, with or without LPS; relative to: vehicle).
The selectivity index of `Cc1ccc(C(C)C)cc1.O=C([N-]c1nc2ccccc2s1)c1cnccn1.[Cl-].[Ru+2]` is reported as greater than 2 (Caco-2; cytotoxicity, MTT; relative to: KMST-6 over Caco-2).
For `COc1cc(CNC(=O)C[C@H](C)CCC=C(C)C)ccc1OCc1cn(-c2ccc(F)cc2)nn1`, the growth percent was 67.9% (T47D breast cancer cells; SRB; 10 µM, 48 h).
`O=C1c2c(O)cc(O)cc2-c2c(-c3ccc(O)cc3)oc3cc(O)cc1c23` — result for mRNA level: “decreased” (T47D ESR1 Y537S; RNA-seq, item: GREB1, PGR, MYC; 10 µM, 24 h).
For `COc1cc(CNC(=O)C[C@H](C)CCC=C(C)C)ccc1OCc1cn(-c2ccc(C#N)cc2)nn1`, the growth percent was 72.8% (ACHN; SRB; 10 µM, 48 h).
`CC(=O)OC[C@H]1O[C@@H](Sc2sc(C(=O)c3ccc(C)cc3)c(N)c2-c2nc3ccccc3s2)[C@H](OC(C)=O)[C@@H](OC(C)=O)[C@H]1OC(C)=O` gave a growth of 92% (LOX IMVI; SRB; 10 µM, 48 h).
The combination index of `CC1(C)OC(=O)C[C@H](O)[C@]2(C)[C@H]3CC[C@@]4(C)[C@H](c5ccoc5)OC(=O)[C@H]5O[C@]54[C@]3(C)C(=O)C[C@@H]12` is reported as 0.66 (COLO 320 (ABCB1-overexpressing, multidrug-resistant); cell growth; 200 µM starting, CI at ED50, added: doxorubicin, ratio 185.6:1).
`COc1cc(CNC(=O)C[C@H](C)CCC=C(C)C)ccc1OCc1cn(-c2cccc(C(F)(F)F)c2)nn1` gave a growth percent of 92.1% (EKVX; SRB; 10 µM, 48 h).
With `CC/C=C\C/C=C\C/C=C\C/C=C\C/C=C\C/C=C\CCC(=O)Nc1ccn(C2OC(CO)C(O)C2(F)F)c(=O)n1` (centres unmarked) the GI50 was 140 nM (RXF 393; cell growth or viability, SRB).
`COc1cc(CNC(=O)C[C@H](C)CCC=C(C)C)ccc1OCc1cn(-c2ccccc2F)nn1` has a growth of 76.7% (LOX IMVI; SRB; 10 µM, 48 h).
`[Cl-].[Cl-].[Ru+2].c1ccc(-c2ccccn2)nc1.c1ccc(-c2ccccn2)nc1.c1ccc(-c2ccnc3c2ccc2c(-c4ccccc4)ccnc23)cc1` — result for “lowest concentration inhibiting OCR”: greater than 1 µM (A549; oxygen consumption rate, Seahorse extracellular flux; 1 h, dark).

Repeated from above:
Under “HIF-1β protein level”, `CCN(CC)CC(=O)Nc1cccc(-n2cc(-c3ccc4ccc(-c5cn(-c6cccc(NC(=O)CN(CC)CC)c6)nn5)cc4c3)nn2)c1` is recorded as “no effect” (RCC4 and 786-0; Western blot; concentration not given).
